Measurements from different studies.
Every numbered part comes from another study and shows a few of its results, in no order.
Sequence of UniProt Q9NYY3 (whole entry, looked up): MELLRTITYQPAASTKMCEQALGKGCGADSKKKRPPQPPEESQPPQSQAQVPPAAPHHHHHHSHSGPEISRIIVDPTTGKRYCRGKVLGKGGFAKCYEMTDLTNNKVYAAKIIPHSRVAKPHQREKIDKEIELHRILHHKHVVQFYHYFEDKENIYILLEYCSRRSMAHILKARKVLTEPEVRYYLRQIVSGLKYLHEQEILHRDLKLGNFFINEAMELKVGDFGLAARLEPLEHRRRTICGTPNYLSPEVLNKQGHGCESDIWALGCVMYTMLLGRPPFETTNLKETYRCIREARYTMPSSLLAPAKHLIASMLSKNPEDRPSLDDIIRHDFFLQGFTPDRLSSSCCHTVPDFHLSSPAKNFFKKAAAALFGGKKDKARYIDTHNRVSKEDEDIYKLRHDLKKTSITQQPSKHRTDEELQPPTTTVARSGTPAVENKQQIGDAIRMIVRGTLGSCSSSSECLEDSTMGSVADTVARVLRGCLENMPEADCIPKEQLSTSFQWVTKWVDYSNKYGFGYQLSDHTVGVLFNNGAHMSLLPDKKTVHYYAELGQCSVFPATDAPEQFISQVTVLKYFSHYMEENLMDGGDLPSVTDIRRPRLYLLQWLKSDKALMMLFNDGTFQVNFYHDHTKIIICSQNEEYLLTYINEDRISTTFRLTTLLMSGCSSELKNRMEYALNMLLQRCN
Sequence of UniProt Q14289 (whole entry, looked up): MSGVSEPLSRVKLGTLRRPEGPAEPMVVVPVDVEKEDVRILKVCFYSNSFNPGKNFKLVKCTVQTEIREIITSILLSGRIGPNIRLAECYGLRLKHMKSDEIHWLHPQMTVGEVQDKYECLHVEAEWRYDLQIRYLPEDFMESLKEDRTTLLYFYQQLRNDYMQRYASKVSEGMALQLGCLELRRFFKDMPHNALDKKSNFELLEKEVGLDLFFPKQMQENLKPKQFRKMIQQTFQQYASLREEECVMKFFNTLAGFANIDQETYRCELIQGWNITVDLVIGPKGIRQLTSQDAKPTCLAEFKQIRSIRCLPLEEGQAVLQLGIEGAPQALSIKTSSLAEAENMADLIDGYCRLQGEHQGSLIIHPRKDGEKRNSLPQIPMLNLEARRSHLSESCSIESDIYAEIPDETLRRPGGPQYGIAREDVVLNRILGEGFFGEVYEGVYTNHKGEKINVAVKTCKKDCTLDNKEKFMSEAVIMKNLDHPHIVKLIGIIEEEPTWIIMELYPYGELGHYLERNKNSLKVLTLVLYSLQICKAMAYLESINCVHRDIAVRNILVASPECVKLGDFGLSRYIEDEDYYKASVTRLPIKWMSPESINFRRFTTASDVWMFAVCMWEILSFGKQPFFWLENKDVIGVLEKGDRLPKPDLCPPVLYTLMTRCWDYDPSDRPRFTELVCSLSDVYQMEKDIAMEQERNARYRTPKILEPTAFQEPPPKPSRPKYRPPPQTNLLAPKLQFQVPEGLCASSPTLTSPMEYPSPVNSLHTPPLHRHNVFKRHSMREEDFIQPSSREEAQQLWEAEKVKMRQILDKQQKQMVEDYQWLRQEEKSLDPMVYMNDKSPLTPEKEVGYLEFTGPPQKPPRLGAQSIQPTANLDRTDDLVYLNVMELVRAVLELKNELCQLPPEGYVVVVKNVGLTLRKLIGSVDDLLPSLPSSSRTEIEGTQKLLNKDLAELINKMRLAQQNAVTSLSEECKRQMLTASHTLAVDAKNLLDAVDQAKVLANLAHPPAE
Sequence of UniProt P07949 (whole entry, looked up): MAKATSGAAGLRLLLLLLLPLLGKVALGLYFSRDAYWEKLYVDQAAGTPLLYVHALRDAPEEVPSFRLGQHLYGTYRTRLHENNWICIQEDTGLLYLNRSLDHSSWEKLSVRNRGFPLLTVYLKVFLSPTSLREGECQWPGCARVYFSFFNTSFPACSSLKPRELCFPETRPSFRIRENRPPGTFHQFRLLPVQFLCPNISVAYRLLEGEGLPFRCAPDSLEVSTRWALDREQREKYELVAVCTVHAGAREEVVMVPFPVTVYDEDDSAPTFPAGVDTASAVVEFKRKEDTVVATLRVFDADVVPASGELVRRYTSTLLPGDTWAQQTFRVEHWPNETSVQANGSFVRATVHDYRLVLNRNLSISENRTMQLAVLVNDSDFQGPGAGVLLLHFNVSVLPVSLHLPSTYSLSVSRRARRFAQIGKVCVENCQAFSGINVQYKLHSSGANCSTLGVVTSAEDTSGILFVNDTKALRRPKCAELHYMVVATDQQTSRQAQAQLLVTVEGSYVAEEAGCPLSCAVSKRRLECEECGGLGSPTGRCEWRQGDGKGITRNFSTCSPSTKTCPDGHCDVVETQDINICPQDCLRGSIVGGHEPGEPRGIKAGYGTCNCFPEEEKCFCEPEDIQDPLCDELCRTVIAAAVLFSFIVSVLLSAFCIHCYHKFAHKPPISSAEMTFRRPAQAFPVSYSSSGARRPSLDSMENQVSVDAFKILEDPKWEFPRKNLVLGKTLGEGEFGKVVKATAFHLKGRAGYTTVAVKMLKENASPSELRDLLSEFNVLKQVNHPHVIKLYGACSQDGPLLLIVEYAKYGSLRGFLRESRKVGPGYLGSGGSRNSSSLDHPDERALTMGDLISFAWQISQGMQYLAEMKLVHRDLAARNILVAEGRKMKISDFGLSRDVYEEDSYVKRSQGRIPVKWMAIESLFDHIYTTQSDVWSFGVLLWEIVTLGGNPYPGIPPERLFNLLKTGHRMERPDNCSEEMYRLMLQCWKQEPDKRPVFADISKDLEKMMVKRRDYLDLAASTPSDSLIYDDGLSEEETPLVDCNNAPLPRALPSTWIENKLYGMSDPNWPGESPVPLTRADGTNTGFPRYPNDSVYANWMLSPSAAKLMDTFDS
Sequence of UniProt P24723 (whole entry, looked up): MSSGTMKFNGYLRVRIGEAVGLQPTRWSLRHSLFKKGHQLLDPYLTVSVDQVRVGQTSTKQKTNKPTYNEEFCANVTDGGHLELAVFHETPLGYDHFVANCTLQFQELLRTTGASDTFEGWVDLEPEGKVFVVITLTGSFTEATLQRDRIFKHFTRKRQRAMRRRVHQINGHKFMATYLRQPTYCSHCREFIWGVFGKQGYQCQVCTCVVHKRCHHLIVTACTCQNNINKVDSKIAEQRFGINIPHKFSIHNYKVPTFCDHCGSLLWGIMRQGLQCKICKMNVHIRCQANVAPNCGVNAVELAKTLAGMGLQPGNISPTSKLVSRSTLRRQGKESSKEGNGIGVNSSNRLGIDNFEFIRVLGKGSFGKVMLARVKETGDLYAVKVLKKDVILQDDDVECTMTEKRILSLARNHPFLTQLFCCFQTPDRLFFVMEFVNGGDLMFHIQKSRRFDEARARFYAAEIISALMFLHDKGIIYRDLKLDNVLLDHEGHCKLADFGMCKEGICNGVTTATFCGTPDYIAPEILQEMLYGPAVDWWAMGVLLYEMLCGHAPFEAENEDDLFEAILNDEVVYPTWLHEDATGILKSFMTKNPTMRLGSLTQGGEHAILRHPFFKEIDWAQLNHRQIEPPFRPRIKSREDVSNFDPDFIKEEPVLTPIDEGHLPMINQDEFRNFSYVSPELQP
Sequence of UniProt P19784 (whole entry, looked up): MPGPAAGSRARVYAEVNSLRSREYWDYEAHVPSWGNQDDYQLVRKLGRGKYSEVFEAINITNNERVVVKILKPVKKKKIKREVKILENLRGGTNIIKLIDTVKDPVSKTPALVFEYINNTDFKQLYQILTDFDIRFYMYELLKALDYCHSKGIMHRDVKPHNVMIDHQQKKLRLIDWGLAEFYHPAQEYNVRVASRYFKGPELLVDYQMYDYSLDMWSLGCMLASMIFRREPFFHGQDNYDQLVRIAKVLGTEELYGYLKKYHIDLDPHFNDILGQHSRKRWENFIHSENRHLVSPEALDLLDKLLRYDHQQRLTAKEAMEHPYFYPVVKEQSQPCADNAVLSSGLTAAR
Sequence of UniProt Q99759 (whole entry, looked up): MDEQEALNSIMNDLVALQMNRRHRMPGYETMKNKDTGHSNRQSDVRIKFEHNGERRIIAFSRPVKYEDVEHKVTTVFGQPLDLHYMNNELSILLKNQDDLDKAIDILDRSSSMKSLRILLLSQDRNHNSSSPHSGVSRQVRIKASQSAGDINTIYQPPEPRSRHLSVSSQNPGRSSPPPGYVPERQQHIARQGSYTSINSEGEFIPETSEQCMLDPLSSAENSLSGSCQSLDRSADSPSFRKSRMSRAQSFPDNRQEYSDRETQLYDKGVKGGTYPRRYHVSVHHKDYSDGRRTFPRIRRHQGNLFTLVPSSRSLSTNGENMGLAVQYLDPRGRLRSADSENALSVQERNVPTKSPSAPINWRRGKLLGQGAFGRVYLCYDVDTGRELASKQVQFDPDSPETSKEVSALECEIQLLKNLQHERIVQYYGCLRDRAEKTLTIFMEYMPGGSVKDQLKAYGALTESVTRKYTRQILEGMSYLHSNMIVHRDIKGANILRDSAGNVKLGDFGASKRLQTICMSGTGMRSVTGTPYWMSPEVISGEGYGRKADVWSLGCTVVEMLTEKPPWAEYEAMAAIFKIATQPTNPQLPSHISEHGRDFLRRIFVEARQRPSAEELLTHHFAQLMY
Sequence of UniProt P34947 (whole entry, looked up): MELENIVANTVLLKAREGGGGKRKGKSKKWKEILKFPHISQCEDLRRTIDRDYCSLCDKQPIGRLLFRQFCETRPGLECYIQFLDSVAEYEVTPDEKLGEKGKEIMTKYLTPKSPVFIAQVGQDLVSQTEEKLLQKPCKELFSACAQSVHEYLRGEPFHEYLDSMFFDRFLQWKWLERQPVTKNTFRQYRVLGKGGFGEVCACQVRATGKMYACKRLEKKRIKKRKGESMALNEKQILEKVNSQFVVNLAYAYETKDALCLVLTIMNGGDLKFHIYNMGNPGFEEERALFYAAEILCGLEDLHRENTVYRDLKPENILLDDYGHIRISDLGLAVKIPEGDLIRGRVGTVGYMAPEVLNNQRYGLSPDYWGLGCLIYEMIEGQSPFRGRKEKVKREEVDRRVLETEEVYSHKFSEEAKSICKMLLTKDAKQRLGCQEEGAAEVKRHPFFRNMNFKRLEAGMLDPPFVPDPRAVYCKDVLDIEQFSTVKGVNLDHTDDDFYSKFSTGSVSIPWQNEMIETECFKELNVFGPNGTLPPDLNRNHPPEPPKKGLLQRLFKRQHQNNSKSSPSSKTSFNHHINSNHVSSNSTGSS

Series 1
SMILES: Cc1cccc(-c2[nH]c(C(C)(C)C)nc2-c2ccc3c(c2)OCO3)n1
Read-out: enzyme activity
Action: inhibitor
Concentration: 0.5 µM
Baseline: control
| target | remaining activity |
| --- | --- |
| CSNK2A2 (Homo sapiens, UniProt P19784) | 83.6% |
| MAP3K2 (Homo sapiens, UniProt Q9Y2U5) | 99.9% |
| DYRK4 (Homo sapiens, UniProt Q9NR20) | 89.7% |
| PTK2B (Homo sapiens, UniProt Q14289) | 91.3% |
| CAMK1G (Homo sapiens, UniProt Q96NX5) | 98.7% |
| MAPK10 (Homo sapiens, UniProt P53779) | 96% |
| PKN2 (Homo sapiens, UniProt Q16513) | 93.5% |
| NTRK3 (Homo sapiens, UniProt Q16288) | 92.4% |
| CAMK1D (Homo sapiens, UniProt Q8IU85) | 102% |
| GRK5 (Homo sapiens, UniProt P34947) | 108% |
| PRKD1 (Homo sapiens, UniProt Q15139) | 92.3% |
| ROS1 (Homo sapiens, UniProt P08922) | 101% |
| MAP3K8 (Homo sapiens, UniProt P41279) | 94.5% |
| DMPK (Homo sapiens, UniProt Q09013) | 102% |
| SLK (Homo sapiens, UniProt Q9H2G2) | 108% |
| ROCK2 (Homo sapiens, UniProt O75116) | 104% |
| NEK9 (Homo sapiens, UniProt Q8TD19) | 95.6% |
| BRSK1 (Homo sapiens, UniProt Q8TDC3) | 101% |
| EGFR (Homo sapiens, UniProt P00533) | 96.4% |
| CDK7 (Homo sapiens, UniProt P50613) | 106% |
| RET (Homo sapiens, UniProt P07949) | 103% |
| Aurora kinase A (AURKA, Homo sapiens, UniProt O14965) | 93.4% |
| Cyclin-dependent kinase 2, with cyclin A (CDK2, Homo sapiens, UniProt P24941) | 117% |

Series 2
Structure (SMILES): C=CC(=O)N1CCC[C@@H](n2nc(-c3ccc(Oc4ccccc4)cc3)c3c(N)ncnc32)C1
Action: inhibitor
Concentration: 1 µM
| target | read-out | inhibition |
| --- | --- | --- |
| HCK (Homo sapiens, UniProt P08631) | enzyme activity | 98% |
| STK32A (Homo sapiens, UniProt Q8WU08) | enzyme activity | 61% |
| CAMK2D (Homo sapiens, UniProt Q13557) | enzyme activity | 7% |
| Myosin-IIIa (MYO3A, Homo sapiens, UniProt Q8NEV4) |  | 34% |
| FLT3 (Homo sapiens, UniProt P36888, F691L/ITD) |  | 41% |
| Ribosomal protein S6 kinase alpha-5, C-terminal kinase domain (RPS6KA5, Homo sapiens, UniProt O75582) |  | 11% |
| WNK2 (Homo sapiens, UniProt Q9Y3S1) | enzyme activity | 20% |
| Aurora kinase B (AURKB, Homo sapiens, UniProt Q96GD4) | enzyme activity | 3% |
| PRKCH (Homo sapiens, UniProt P24723) |  | 13% |
| PRKG2 (Homo sapiens, UniProt Q13237) | enzyme activity | 30% |
| PIK3CA (Homo sapiens, UniProt P42336, H1047Y) | enzyme activity | 20% |
| Tyrosine-protein kinase ABL1, phosphorylated (ABL1, Homo sapiens, UniProt P00519, M351T) |  | 34% |
| CDKL1 (Homo sapiens, UniProt Q00532) | enzyme activity | 45% |
| VRK2 (Homo sapiens, UniProt Q86Y07) | enzyme activity | 36% |
| Tyrosine-protein kinase ABL1, non-phosphorylated (ABL1, Homo sapiens, UniProt P00519, F317I) |  | 91% |

Series 3
Structure (SMILES): CN1CCN(C(=O)c2ccc(NC(=O)Nc3ccc(N(C)c4ccnc(Nc5ccc(CS(C)(=O)=O)cc5)n4)cc3)cc2)CC1
Concentration: 1 µM
| target | method | refers to | setting | with | baseline | remaining binding [%] |
| --- | --- | --- | --- | --- | --- | --- |
| IRAK4 (Homo sapiens, UniProt Q9NWZ3) | competitive binding panel |  |  |  | vehicle | 52 |
| CDC42BPB (Homo sapiens, UniProt Q9Y5S2) | competitive binding |  | MRCKB |  |  | 86 |
| CLK2 (Homo sapiens, UniProt P49760) | competitive binding panel |  |  |  | vehicle | 54 |
| MAP3K3 (Homo sapiens, UniProt Q99759) | competitive binding panel |  |  |  | vehicle | 57 |
| LTK (Homo sapiens, UniProt P29376) | competitive binding panel |  |  |  | vehicle | 85 |
| PTK2B (Homo sapiens, UniProt Q14289) | competitive binding panel | PYK2 |  |  | vehicle | 20 |
| PLK2 (Homo sapiens, UniProt Q9NYY3) | competitive binding panel |  |  |  | vehicle | 100 |
| PRKG1 (Homo sapiens, UniProt Q13976) | competitive binding panel |  |  |  | vehicle | 100 |
| CSNK2A1 (Homo sapiens, UniProt P68400) | competitive binding panel |  |  |  | vehicle | 83 |
| CDK4 (Homo sapiens, UniProt P11802) | competitive binding scan |  |  | cyclin D3 |  | 89 |
| PRKCH (Homo sapiens, UniProt P24723) | competitive binding panel |  |  |  | vehicle | 100 |

Series 4
Compound: Cc1cc(C)c(-n2ccn3nc(-c4cccnc4)cc23)cc1NC(=O)c1cc(C#N)cc(S(F)(F)(F)(F)F)c1
Concentration: 0.1 µM
| target | read-out | method | remaining binding |
| --- | --- | --- | --- |
| MAP2K2 (Homo sapiens, UniProt P36507) | cell-free assay | competition with immobilised ligand | 74.4% |
| PRKACB (Homo sapiens, UniProt P22694) | cell-free assay | competition with immobilised ligand | 100% |
| EGFR (Homo sapiens, UniProt P00533, del746-750) | cell-free assay | competition with immobilised ligand | 72.9% |
| PLK2 (Homo sapiens, UniProt Q9NYY3) | cell-free assay | competition with immobilised ligand | 83.3% |
| SBK1 (Homo sapiens, UniProt Q52WX2) | cell-free assay | competition with immobilised ligand | 82.2% |
| BTK (Homo sapiens, UniProt Q06187) | cell-free assay | competition with immobilised ligand | 100% |
| TNK1 (Homo sapiens, UniProt Q13470) | cell-free assay | competition with immobilised ligand | 87.6% |
| MAP3K13 (Homo sapiens, UniProt O43283) | cell-free assay | competition with immobilised ligand | 97.9% |
| STK17A (Homo sapiens, UniProt Q9UEE5) | cell-free assay | competition with immobilised ligand | 100% |
| MAP3K10 (Homo sapiens, UniProt Q02779) | cell-free assay | competition with immobilised ligand | 100% |
| CDK19 (Homo sapiens, UniProt Q9BWU1) |  | competition binding | 90.7% |
| RET (Homo sapiens, UniProt P07949) | cell-free assay | competition with immobilised ligand | 82% |
| NTRK1 (Homo sapiens, UniProt P04629) | cell-free assay | competition with immobilised ligand | 74.8% |
| MATK (Homo sapiens, UniProt P42679) | cell-free assay | competition with immobilised ligand | 80.4% |
| PAK6 (Homo sapiens, UniProt Q9NQU5) | cell-free assay | competition with immobilised ligand | 70.1% |
| AKT2 (Homo sapiens, UniProt P31751) | cell-free assay | competition with immobilised ligand | 88.4% |

Repeated from above (series 4):
| target | read-out | method | remaining binding |
| --- | --- | --- | --- |
| NTRK1 (Homo sapiens, UniProt P04629) | cell-free assay | competition with immobilised ligand | 74.8% |
| MATK (Homo sapiens, UniProt P42679) | cell-free assay | competition with immobilised ligand | 80.4% |
| PAK6 (Homo sapiens, UniProt Q9NQU5) | cell-free assay | competition with immobilised ligand | 70.1% |
| AKT2 (Homo sapiens, UniProt P31751) | cell-free assay | competition with immobilised ligand | 88.4% |
